Results of several laboratories.
Values joined by “and” are separate records of one study, mostly repeats; a detail may differ. Numbers after ± are the reported error.

| Structure (SMILES) | tested on | assay | test system | conditions | how to read | quantity | result |
| --- | --- | --- | --- | --- | --- | --- | --- |
| CSCC[C@H](NC(=O)CNC(=O)[C@H](CCCCN)NC(=O)[C@H](CC(C)C)NC(=O)[C@@H]1CCCN1C(=O)[C@H](CO)NC(=O)[C@H](Cc1c[nH]cn1)NC(=O)[C@H](Cc1c[nH]c2ccccc12)NC(=O)[C@H](CCCNC(=N)N)NC(=O)[C@H](CC(C)C)NC(=O)[C@H](CCCNC(=N)N)NC(=O)[C@H](Cc1c[nH]c2ccccc12)NC(=O)[C@H](CS)NC(=O)CCCCCNC(=O)CN1CCN(CC(=O)O)CCN(CC(=O)O)CCN(CC(=O)O)CC1)C(=O)O [copper-64 labelled] |  |  | BALB/c nude mouse, Huh-7 tumour, small intestine | intravenous, 1 h, ex vivo biodistribution |  | tissue uptake | 5.79 %ID/g |
| CC(CCC(=O)NCC(=O)O)C1CCC2C3C(O)CC4CC(OC5OC(C(=O)O)C(O)C(O)C5O)CCC4(C)C3CCC12C (stereo not drawn) |  | refers to: glucuronide to parent ratio | men, plasma | dose not given | relative to: C/C over T/T | ratio of metabolic ratios | 5.73 |
| CC[C@H](C)[C@H](NC(=O)CN)C(=O)N[C@@H](CCCNC(=N)N)C(=O)N[C@@H](CCCCN)C(=O)N[C@@H](Cc1c[nH]c2ccccc12)C(=O)N[C@@H](Cc1ccccc1)C(=O)N[C@@H](CCCCN)C(=O)N[C@@H](CCCCN)C(=O)N[C@@H](C)C(=O)N[C@@H](C)C(=O)N[C@@H](Cc1c[nH]cn1)C(=O)N[C@H](C(=O)NCC(=O)N[C@@H](CCCCN)C(=O)N[C@@H](CCCCN)C(=O)N[C@H](C(=O)NCC(=O)N[C@@H](CCCCN)C(=O)N[C@H](C(=O)N[C@@H](C)C(=O)N[C@@H](CC(C)C)C(=O)N[C@@H](CC(N)=O)C(=O)N[C@@H](C)C(=O)N[C@@H](Cc1ccc(O)cc1)C(=O)N[C@@H](CC(C)C)C(N)=O)C(C)C)C(C)C)C(C)C |  |  | zebrafish embryos 28 hpf, E3 medium | 1 h |  | acute toxic concentration | 5 µM |
| CCCCCCCCCCCCCCCC(=O)N[C@@H](CCC(=O)NCCOCCOCCC(=O)NCCOCCOCCC(=O)NCCCC[C@H](NC(=O)[C@H](CC(=O)O)NC(=O)[C@H](CC(C)C)NC(=O)[C@H](Cc1ccc(O)cc1)NC(=O)[C@H](CCCCN)NC(=O)[C@H](CO)NC(=O)[C@H](Cc1ccc(O)cc1)NC(=O)[C@H](CC(=O)O)NC(=O)[C@H](CO)NC(=O)[C@@H](NC(=O)[C@H](Cc1ccccc1)NC(=O)[C@@H](NC(=O)CNC(=O)[C@H](CCC(N)=O)NC(=O)[C@@H](CO)NC(=O)[C@@H](N)Cc1c[nH]cn1)[C@@H](C)O)[C@@H](C)O)C(=O)N[C@@H](CCCNC(=N)N)C(=O)N[C@@H](CCCNC(=N)N)C(=O)N[C@@H](C)C(=O)N[C@@H](CCC(N)=O)C(=O)N[C@@H](CC(=O)O)C(=O)N[C@@H](Cc1ccccc1)C(=O)N[C@H](C(=O)N[C@@H](CCC(N)=O)C(=O)N[C@@H](Cc1c[nH]c2ccccc12)C(=O)N[C@@H](CC(C)C)C(=O)N[C@@H](CC(C)C)C(=O)N[C@@H](CC(N)=O)C(=O)N[C@H](C(=O)NCC(=O)NCC(=O)N1CCC[C@H]1C(=O)N[C@@H](CO)C(=O)N[C@@H](CO)C(=O)NCC(=O)N[C@@H](C)C(=O)N1CCC[C@H]1C(=O)N1CCC[C@H]1C(=O)N1CCC[C@H]1C(=O)N[C@@H](CO)C(N)=O)[C@@H](C)O)C(C)C)C(=O)O |  |  | rhesus monkey, plasma | subcutaneous, 5 µg/kg |  | bioavailability | 13.1% |
| COc1ccc(CNc2ccc3c(c2)S(=O)(=O)C=C3)cc1 |  |  | male C57BL/6 mice, blood | intraperitoneal, 5 mg/kg, day 8, group average |  | mean platelet volume | 5.27 fL |
| CC[C@H](C)[C@@H]1NC(=O)[C@H](Cc2ccc(O)cc2)NC(=O)CCCSC[C@@H](C(=O)N(CC(=O)N[C@@H](CC(C)C)C(=O)NCC(N)=O)Cc2ccc(F)cc2)NC(=O)[C@H](CC(N)=O)NC(=O)[C@H](CCC(N)=O)NC1=O |  |  | human | intranasal, 50 µg repeated doses |  | deaths | 0% |
| CC[C@H](C)[C@H](NC(=O)[C@H](CCCCN)NC(=O)CNC(=O)[C@H](CC(C)C)NC(=O)[C@H](Cc1ccccc1)NC(=O)[C@H](CCCCN)NC(=O)[C@H](CO)NC(=O)[C@H](Cc1ccccc1)NC(=O)[C@H](Cc1c[nH]c2ccccc12)NC(=O)[C@H](CCC(N)=O)NC(=O)[C@@H](NC(=O)[C@H](Cc1ccccc1)NC(=O)CCCCCNC(=O)CN1CCN(CC(=O)O)CCN(CC(=O)O)CCN(CC(=O)O)CC1)C(C)C)C(=O)N[C@@H](CCC(=O)O)C(=O)N1CCC[C@H]1C(=O)N[C@@H](CC(=O)O)C(=O)N[C@H](C(=O)N[C@@H](CO)C(=O)N[C@@H](CCC(N)=O)C(=O)N[C@H](C(=O)N[C@@H](CCC(N)=O)C(=O)N[C@@H](CC(=O)O)C(=O)N1CCC[C@H]1C(=O)N[C@@H](CC(N)=O)C(=O)N[C@@H](CC(=O)O)C(=O)N[C@@H](CCC(N)=O)C(=O)N[C@@H](Cc1ccc(O)cc1)C(=O)N[C@@H](CCC(=O)O)C(=O)N1CCC[C@H]1C(=O)N[C@@H](Cc1ccccc1)C(=O)O)C(C)C)C(C)C [copper-64 labelled] |  | dynamic PET | mouse, CT26 tumour, checkpoint inhibitor-treated, tumour | intravenous, 100 µCi/mouse, 70 s |  | SUVmean | 2.27 SUV |
| CC(C)[C@@H]1NC(=O)CNC(=O)[C@H](CC(N)=O)NC(=O)[C@H](CCCNC(=N)N)NC(=O)[C@H](Cc2ccc(O)cc2)NC(=O)[C@H](C(C)C)NC(=O)[C@@H](NC(=O)[C@@H](NC(=O)[C@H](CC(N)=O)NC(=O)[C@H](Cc2c[nH]c3ccccc23)NC(=O)[C@H](C)NC(=O)[C@H](Cc2ccccc2)NC(=O)CNC(=O)[C@H](CCCCN)NC(=O)[C@H](Cc2ccccc2)NC(=O)[C@H](Cc2ccccc2)NC(=O)[C@H](CCCCN)NC(=O)OCC2c3ccccc3-c3ccccc32)C(C)C)CSSC[C@@H](C(=O)N[C@@H](Cc2c[nH]cn2)C(=O)N[C@@H](CCCNC(=N)N)C(=O)N[C@@H](CCCNC(=N)N)C(=O)N[C@@H](C)C(=O)N[C@@H](CC(N)=O)C(N)=O)NC(=O)[C@H](C(C)C)NC(=O)[C@H](CCCNC(=N)N)NC1=O |  |  | ICR mice, blood | intraperitoneal, 5 mg/kg, day 5 |  | lymphocytes | 74.5 ± 1.36% |
| O=C(c1cc(Cc2n[nH]c(=O)c3ccccc23)ccc1F)N1CC(CNC2CC2)C1 |  | general toxicity | Wistar rat | oral, multiple doses, once daily |  | NOAEL | 30 mg/kg/day |
| CCCCCCCCCCCCCCCC(=O)NCCCC[C@H](NC(=O)[C@H](CCC(=O)O)NC(=O)[C@H](Cc1ccc(O)cc1)NC(=O)[C@H](CCC(=O)O)NC(=O)COCC(=O)NCCCOCCOCCOCCCNC(=O)[C@H](Cc1ccccc1)NC(=O)[C@H](CC(N)=O)NC(=O)[C@H](Cc1c[nH]cn1)NC(=O)[C@@H](NC(=O)[C@H](CC(=O)O)NC(=O)[C@H](CCC(N)=O)NC(=O)[C@H](CC(C)C)NC(=O)[C@H](CCCCN)NC(=O)[C@H](CCCCN)NC(=O)[C@H](CCCNC(=N)N)NC(=O)[C@H](CC(C)C)NC(=O)[C@H](Cc1c[nH]c2ccccc12)NC(=O)[C@H](CCC(=O)O)NC(=O)[C@@H](NC(=O)[C@H](CCCNC(=N)N)NC(=O)[C@H](CCC(=O)O)NC(=O)[C@H](CCSC)NC(=O)[C@H](CO)NC(=O)[C@H](CC(N)=O)NC(=O)[C@H](CC(C)C)NC(=O)[C@H](Cc1c[nH]cn1)NC(=O)[C@H](CCCCN)NC(=O)CNC(=O)[C@H](CC(C)C)NC(=O)[C@H](CC(N)=O)NC(=O)[C@H](Cc1c[nH]cn1)NC(=O)[C@H](CCSC)NC(=O)[C@H](CC(C)C)NC(=O)[C@H](CCC(N)=O)NC(=O)[C@@H](NC(=O)[C@H](CCC(=O)O)NC(=O)[C@H](CO)NC(=O)[C@@H](NC(=O)[C@@H](N)CO)C(C)C)[C@@H](C)CC)C(C)C)C(C)C)C(=O)N[C@@H](CCC(=O)O)C(=O)N[C@@H](Cc1ccc(O)cc1)C(=O)N[C@@H](CCC(=O)O)C(N)=O |  | ELISA | female CD-1 mice, blood plasma | subcutaneous, 10 nmol/kg, 1 h |  | plasma concentration | 28.1 nM |
| Cc1ccc(N2CC3CCC(C2)N3C)cc1C(=O)N[C@H](C)c1cc(-c2cnn(C)c2)nc2ccccc12 | African green monkey cells |  |  | 15.62 µM |  | viability | 91.2% |
| CSCC[C@H](NC(=O)[C@@H](NC(=O)[C@H](CC(C)C)NC(=O)[C@@H](NC(=O)[C@H](Cc1c[nH]cn1)NC(=O)CCCCCNC(=O)[C@H](CCCNC(=N)N)NC(=O)[C@H](CCCNC(=N)N)NC(=O)[C@H](CCCNC(=N)N)NC(=O)[C@H](CCC(N)=O)NC(=O)[C@H](CCCNC(=N)N)NC(=O)[C@H](CCCNC(=N)N)NC(=O)[C@H](CCCCN)NC(=O)[C@H](CCCCN)NC(=O)[C@H](CCCNC(=N)N)NC(=O)CNC(=O)[C@@H](N)Cc1ccc(O)cc1)C(C)C)C(C)C)C(=O)N[C@@H](CS)C(=O)N[C@@H](C)C(=O)N[C@H](C(N)=O)[C@@H](C)O |  |  | C57BL/6J mice | Alzet osmotic pump, 3 mg/kg, 8 weeks |  | serum Triglycerides | 167 mg/dL and 106 mg/dL and 68 mg/dL |
| COC(=O)[C@@H](Cc1ccc(-c2ccccc2)cc1)NC(=O)c1ccc(-c2ccc(OP(=O)(O)O)cc2)cc1 |  |  | PBS | pH 7.4, before phosphatase treatment |  | critical micelle concentration | 92.6 µM |
| Cc1ccc(NC2(C)CN(C)C2)cc1C(=O)N[C@H](C)c1cc(-c2cnn(C)c2)nc2ccccc12 | Vero E6 |  |  | 7.812 µM |  | viability | 88.2% and 90.2% and 89.2% |
| O=C1NC2(CC2)COc2ncc(F)cc2[C@H]2COCCN2c2ccn3ncc1c3n2 |  |  | Sprague-Dawley rat, male, kidneys | oral, 20 mg/kg/day, 4 weeks dosing, end of recovery |  | organ-to-body weight ratio | 0.713 ± 0.069% |

Excerpt of the above:
| Structure (SMILES) | tested on | assay | test system | conditions | how to read | quantity | result |
| --- | --- | --- | --- | --- | --- | --- | --- |
| COC(=O)[C@@H](Cc1ccc(-c2ccccc2)cc1)NC(=O)c1ccc(-c2ccc(OP(=O)(O)O)cc2)cc1 |  |  | PBS | pH 7.4, before phosphatase treatment |  | critical micelle concentration | 92.6 µM |
| Cc1ccc(NC2(C)CN(C)C2)cc1C(=O)N[C@H](C)c1cc(-c2cnn(C)c2)nc2ccccc12 | Vero E6 |  |  | 7.812 µM |  | viability | 88.2% and 90.2% and 89.2% |
